Published values pooled from the literature.
Every numbered part comes from another study and shows a few of its results, in no order. Values joined by “and” are separate records of one study, mostly repeats; a detail may differ. pEC50: −log10 of the molar value.
UniProt Q9HAZ1, sequence (whole entry, looked up): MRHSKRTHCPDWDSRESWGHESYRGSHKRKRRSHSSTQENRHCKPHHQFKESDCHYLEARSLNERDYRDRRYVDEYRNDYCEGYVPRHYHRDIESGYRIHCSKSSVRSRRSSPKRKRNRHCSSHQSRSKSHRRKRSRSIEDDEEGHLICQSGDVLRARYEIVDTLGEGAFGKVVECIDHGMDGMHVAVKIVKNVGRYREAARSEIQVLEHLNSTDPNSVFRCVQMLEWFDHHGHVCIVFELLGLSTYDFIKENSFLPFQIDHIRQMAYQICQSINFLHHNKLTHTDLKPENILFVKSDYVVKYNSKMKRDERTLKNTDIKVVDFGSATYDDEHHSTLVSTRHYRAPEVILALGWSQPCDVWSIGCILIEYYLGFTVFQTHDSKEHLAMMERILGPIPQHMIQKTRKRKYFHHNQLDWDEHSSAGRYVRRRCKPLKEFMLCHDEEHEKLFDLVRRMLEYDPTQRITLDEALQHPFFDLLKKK
UniProt P08922, sequence (whole entry, looked up): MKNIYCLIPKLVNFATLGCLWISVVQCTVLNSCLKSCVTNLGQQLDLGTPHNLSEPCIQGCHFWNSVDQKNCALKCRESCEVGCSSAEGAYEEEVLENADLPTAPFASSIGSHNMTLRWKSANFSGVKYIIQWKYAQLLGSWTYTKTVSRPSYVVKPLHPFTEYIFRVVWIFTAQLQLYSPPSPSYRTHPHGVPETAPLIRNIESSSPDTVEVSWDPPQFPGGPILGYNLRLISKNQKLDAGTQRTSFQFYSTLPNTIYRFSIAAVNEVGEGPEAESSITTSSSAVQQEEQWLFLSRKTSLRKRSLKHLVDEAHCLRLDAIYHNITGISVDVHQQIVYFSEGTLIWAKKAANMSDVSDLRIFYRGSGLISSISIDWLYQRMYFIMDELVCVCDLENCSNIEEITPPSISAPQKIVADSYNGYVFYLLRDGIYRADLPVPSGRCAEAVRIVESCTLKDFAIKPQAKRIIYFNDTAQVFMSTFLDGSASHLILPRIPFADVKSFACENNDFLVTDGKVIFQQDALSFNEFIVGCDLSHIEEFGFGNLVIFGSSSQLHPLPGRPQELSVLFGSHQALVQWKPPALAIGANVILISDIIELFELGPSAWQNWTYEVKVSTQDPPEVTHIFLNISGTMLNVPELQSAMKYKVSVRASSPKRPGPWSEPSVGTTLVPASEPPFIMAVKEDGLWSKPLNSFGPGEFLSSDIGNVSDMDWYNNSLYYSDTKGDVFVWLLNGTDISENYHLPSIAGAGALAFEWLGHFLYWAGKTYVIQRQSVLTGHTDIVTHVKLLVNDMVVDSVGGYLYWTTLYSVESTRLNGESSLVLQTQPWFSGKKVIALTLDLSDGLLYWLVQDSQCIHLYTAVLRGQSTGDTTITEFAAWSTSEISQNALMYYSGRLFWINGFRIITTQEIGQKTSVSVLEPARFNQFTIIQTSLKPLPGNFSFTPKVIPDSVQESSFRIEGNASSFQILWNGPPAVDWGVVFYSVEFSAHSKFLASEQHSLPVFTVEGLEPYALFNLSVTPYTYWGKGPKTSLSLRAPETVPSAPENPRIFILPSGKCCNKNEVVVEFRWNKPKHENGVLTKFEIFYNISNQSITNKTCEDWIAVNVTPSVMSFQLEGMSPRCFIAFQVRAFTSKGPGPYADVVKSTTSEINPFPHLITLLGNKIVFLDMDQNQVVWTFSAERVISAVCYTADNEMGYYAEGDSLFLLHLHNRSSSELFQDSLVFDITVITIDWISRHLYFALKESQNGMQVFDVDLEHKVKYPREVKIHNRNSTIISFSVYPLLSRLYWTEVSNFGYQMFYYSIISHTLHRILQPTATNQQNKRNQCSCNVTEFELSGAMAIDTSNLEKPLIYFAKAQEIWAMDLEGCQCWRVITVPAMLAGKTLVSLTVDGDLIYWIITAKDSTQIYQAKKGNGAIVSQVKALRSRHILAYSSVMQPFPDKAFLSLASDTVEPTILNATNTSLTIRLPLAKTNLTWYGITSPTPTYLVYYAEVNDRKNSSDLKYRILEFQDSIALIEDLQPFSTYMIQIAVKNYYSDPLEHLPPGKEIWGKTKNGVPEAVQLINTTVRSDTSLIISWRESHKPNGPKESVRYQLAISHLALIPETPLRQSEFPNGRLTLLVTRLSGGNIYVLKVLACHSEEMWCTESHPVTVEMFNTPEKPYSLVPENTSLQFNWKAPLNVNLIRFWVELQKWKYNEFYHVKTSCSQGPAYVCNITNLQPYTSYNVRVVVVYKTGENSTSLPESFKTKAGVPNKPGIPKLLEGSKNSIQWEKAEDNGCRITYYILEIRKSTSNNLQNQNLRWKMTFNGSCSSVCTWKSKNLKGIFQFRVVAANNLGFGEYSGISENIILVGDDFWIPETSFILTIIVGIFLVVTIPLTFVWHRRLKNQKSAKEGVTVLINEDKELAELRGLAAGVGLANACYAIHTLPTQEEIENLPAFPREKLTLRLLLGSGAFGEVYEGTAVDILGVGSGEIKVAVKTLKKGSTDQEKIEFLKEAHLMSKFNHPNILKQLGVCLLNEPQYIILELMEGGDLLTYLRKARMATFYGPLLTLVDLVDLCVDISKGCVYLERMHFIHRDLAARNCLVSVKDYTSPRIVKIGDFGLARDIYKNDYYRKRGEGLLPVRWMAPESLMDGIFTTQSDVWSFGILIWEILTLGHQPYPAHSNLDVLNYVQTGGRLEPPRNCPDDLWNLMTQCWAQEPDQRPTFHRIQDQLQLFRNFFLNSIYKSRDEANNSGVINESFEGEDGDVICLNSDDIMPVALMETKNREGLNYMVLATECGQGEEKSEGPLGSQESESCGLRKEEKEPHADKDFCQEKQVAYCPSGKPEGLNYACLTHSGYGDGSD
UniProt P41279, sequence (whole entry, looked up): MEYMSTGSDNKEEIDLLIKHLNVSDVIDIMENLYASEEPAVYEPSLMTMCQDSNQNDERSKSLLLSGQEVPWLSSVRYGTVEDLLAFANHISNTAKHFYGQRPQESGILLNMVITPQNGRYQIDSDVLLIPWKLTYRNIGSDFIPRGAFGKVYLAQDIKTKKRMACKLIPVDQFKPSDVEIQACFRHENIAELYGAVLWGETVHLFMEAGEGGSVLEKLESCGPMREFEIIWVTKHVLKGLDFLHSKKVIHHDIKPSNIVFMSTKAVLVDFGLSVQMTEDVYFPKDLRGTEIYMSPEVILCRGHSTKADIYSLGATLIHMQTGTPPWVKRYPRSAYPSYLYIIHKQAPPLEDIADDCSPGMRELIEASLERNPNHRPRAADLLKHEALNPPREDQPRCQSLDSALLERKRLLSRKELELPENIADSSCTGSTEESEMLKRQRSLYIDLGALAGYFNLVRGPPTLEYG

Sample 1 — cell line: mouse MPNST tumor cells; method: high-content immunofluorescence imaging; measured: nuclear SOX9; concentration: 10 µM; time: 12 h; setting: mean of 2 replicates; relative to: DMSO control; reading: higher = more nuclear SOX9
Under “nuclear SOX9 intensity”, `O=C(O)CCc1ccc(NCc2cccc(Oc3ccccc3)c2)cc1` is recorded as 108 % of DMSO.
`Cn1ncnc1COc1nn2c(-c3cc(F)ccc3F)nnc2cc1C(C)(C)C` — result for “nuclear SOX9 intensity”: 91.4 % of DMSO.
For `O=C1NCCN1c1ncc([N+](=O)[O-])s1`, “nuclear SOX9 intensity” read 95.7 % of DMSO.
Under “nuclear SOX9 intensity”, `CC(C)(Oc1ccc(C2CC2(Cl)Cl)cc1)C(=O)O` (stereo not shown) is recorded as 99.5 % of DMSO.
For `CC(=O)N(CC(O)CO)c1c(I)c(C(=O)NCC(O)CO)c(I)c(C(=O)NCC(O)CO)c1I` (stereo not shown), “nuclear SOX9 intensity” read 94.3 % of DMSO.
Under “nuclear SOX9 intensity”, `O=CN1CCC(C(=O)NCCN2CCC(=C3c4ccccc4C=Cc4ccccc43)CC2)CC1` is recorded as 111 % of DMSO.
Under “nuclear SOX9 intensity”, `COc1cccc(-n2nc(C(=O)O)cc2-c2ccc(C3CCCCC3)c(Cl)c2)c1` is recorded as 137 % of DMSO.
For `Nc1ncnc2c1c(-c1ccc(Oc3ccccc3)cc1)nn2C1CCCC1`, “nuclear SOX9 intensity” read 129 % of DMSO.
Under “nuclear SOX9 intensity”, `CC1(C)S[C@@H]2[C@H](NC(=O)[C@H](N)c3ccccc3)C(=O)N2[C@H]1C(=O)O` is recorded as 98.1 % of DMSO.

Sample 2 — read-out: enzyme activity; mode: inhibitor; concentration: 0.5 µM; relative to: control
SMILES: Nc1nccc(-c2c(-c3ccc(F)cc3)ncn2C2CCNCC2)n1
For Serine/threonine-protein kinase N2 (PKN2, Homo sapiens, UniProt Q16513): remaining activity read 97.1%.
Epidermal growth factor receptor (EGFR, Homo sapiens, UniProt P00533) — remaining activity: 94.4%.
NT-3 growth factor receptor (NTRK3, Homo sapiens, UniProt Q16288) — remaining activity: 97.1%.
For Cyclin-dependent kinase 2, with cyclin A (CDK2, Homo sapiens, UniProt P24941): remaining activity read 100%.
The remaining activity was 102% (Mitogen-activated protein kinase kinase kinase 8 (MAP3K8, Homo sapiens, UniProt P41279)).
The remaining activity was 99.9% (STE20-like serine/threonine-protein kinase (SLK, Homo sapiens, UniProt Q9H2G2)).
The remaining activity was 94.1% (Proto-oncogene tyrosine-protein kinase ROS (ROS1, Homo sapiens, UniProt P08922)).

Further values, each from its own experiment
Under “cells with altered mitochondria”, `Cn1cncc1[C@@](O)(COc1ccc(C#N)cc1-c1ccc(OC(F)(F)F)cc1)c1ccc(C#N)cc1` is recorded as 15.6% (HEK293T; high-content imaging; 10 µM, 24 h).
With `Cc1c(C(=O)NN2CCCCC2)nn(-c2ccc(Cl)cc2Cl)c1-c1ccc(I)cc1` the inhibition was 99.2% (Sarcocystis neurona; GFP/FLUC expressing; 10 µM, confirmation screen).
With `C[C@@H]1CN(c2cc(-c3nn(C)c4ccc(OC5(C)CC5)cc34)ncn2)C[C@H](C)O1` the pEC50 was 5.36 and 5.04 and 5.29 (Dual specificity protein kinase CLK4 (CLK4, Homo sapiens, UniProt Q9HAZ1); target engagement, NanoBRET; live cells).

A few entries again (sample 2):
For Cyclin-dependent kinase 2, with cyclin A (CDK2, Homo sapiens, UniProt P24941): remaining activity read 100%.
For Serine/threonine-protein kinase N2 (PKN2, Homo sapiens, UniProt Q16513): remaining activity read 97.1%.
NT-3 growth factor receptor (NTRK3, Homo sapiens, UniProt Q16288) — remaining activity: 97.1%.
